# Measurements collected from several papers.
# Protocols differ between the studies behind these lines. ± marks the error that the study gave.
SMILES,organism,test,system,conditions,EC50
O=S(=O)(CCC(F)(F)F)N[C@H]1CC[C@H](Nc2ncc3c(-c4ccccn4)n[nH]c3n2)CC1,Leishmania donovani,,"promastigotes, LdBOB wild type start clone",,0.1 µM
CCOC(=O)/C=C/[C@H](C[C@@H]1CCNC1=O)NC(=O)[C@@H]1[C@@H]2[C@H](CN1C(=O)[C@@H](NC(=O)C(F)(F)F)C(C)(C)C)C2(C)C,HCoV-229E,viral replication,MRC-5,96 h,1.29 ± 0.664 µM
O=c1cc[s+]([O-])c2ccc(Cl)cc12 (racemic),Leishmania panamensis,"parasite growth, flow cytometry",U-937,"72 h, intracellular, amastigote",197 µM
CC(=O)Oc1ccc(Cn2cc(C)c(=O)[nH]c2=O)cc1C1OC(c2ccccc2)=NN1C(C)=O (stereo not drawn),varicella-zoster virus,"plaque formation, plaque reduction","HEL fibroblasts, TK- strain 07-1",,> 100 µM
CN(C(=O)c1ccn2ncc(-c3ccc(C(N)=O)cc3)c2c1)c1ccc(C#N)cn1,Cryptosporidium hominis,cytopathic effect,HCT-8,,0.13 µM
Nc1ncnc2c1c(Cl)cn2[C@@H]1O[C@H](CO)[C@@H](O)[C@H]1O,Trypanosoma equiperdum,"parasite growth, resazurin",,72 h,0.12 µM
CC(=O)Oc1ccc(Cn2cc(F)c(=O)[nH]c2=O)cc1C1OC(c2ccccc2)=NN1C(C)=O (stereo not drawn),varicella-zoster virus,"plaque formation, plaque reduction","HEL fibroblasts, TK- strain 07-1",,> 100 µM
CCOc1cccc(NC(=O)CSc2cn(C(=O)OC(C)(C)C)c3ccccc23)c1,human coronavirus OC43,"viral cytopathic effect, MTS",HCT-8,120 h,0.94 µM
CNC(=O)c1ccc(-c2cnn3ccc(C(=O)Nc4ccc(C#N)cn4)cc23)cc1,Cryptosporidium hominis,cytopathic effect,HCT-8,,> 20 µM
CC(=O)Oc1ccc(Cn2cc(F)c(=O)[nH]c2=O)cc1C1OC(c2ccc(Cl)cc2)=NN1C(C)=O (stereo not drawn),varicella-zoster virus,"plaque formation, plaque reduction","HEL fibroblasts, TK- strain 07-1",,> 20 µM
O=C1/C(=N\NC(=S)NN=Cc2cccs2)c2ccccc2N1Cc1ccccc1,varicella-zoster virus,plaque formation,"HEL, TK+",,> 20 µM
CCCCCCCC1=CC(=O)c2ccccc2S1(=O)=O,Leishmania panamensis,"parasite growth, flow cytometry",U-937,"72 h, intracellular, amastigote",62.4 µM
CC(=O)Oc1ccc(Cn2cc(F)c(=O)[nH]c2=O)cc1C1OC(c2cccc(Cl)c2)=NN1C(C)=O (stereo not drawn),varicella-zoster virus,"plaque formation, plaque reduction","HEL fibroblasts, TK- strain 07-1",,> 20 µM
O=c1cc[s+]([O-])c2ccccc12 (racemic),Leishmania panamensis,"parasite growth, flow cytometry",U-937,"72 h, intracellular, amastigote",112 µM
CC(C)OC(=O)[C@H](Cc1ccccc1)NP(=O)(COCCn1cnc2c(=O)[nH]c(=O)[nH]c21)N[C@@H](Cc1ccccc1)C(=O)OC(C)C,varicella-zoster virus,plaque formation,"HEL, Oka TK+",,22 µM
Nc1ncnc2c1c(Br)cn2[C@@H]1O[C@H](CO)[C@@H](O)[C@H]1O,Trypanosoma equiperdum,"parasite growth, resazurin",,72 h,0.085 µM
CC(=O)Oc1ccc(Cn2cc(C)c(=O)[nH]c2=O)cc1C1OC(c2ccc(Cl)cc2)=NN1C(C)=O (stereo not drawn),varicella-zoster virus,"plaque formation, plaque reduction","HEL fibroblasts, TK+ strain OKA",,> 20 µM
Cc1cn(C2CC(N(C)C)C(CO)O2)c(=O)[nH]c1=O (stereo not drawn),reovirus 1,viral replication,Vero,,> 0.37 µM
CC(=O)Oc1ccc(Cn2ccc(=O)[nH]c2=O)cc1C1OC(c2cccc(Cl)c2)=NN1C(C)=O (stereo not drawn),varicella-zoster virus,"plaque formation, plaque reduction","HEL fibroblasts, TK+ strain OKA",,43 µM
CNC(=O)c1ccc(-c2cnn3ccc(C(=O)N(C)c4ccc(C#N)cn4)cc23)cc1,Cryptosporidium hominis,cytopathic effect,HCT-8,,0.119 µM
CC(=O)Oc1ccc(Cn2cc(C)c(=O)[nH]c2=O)cc1C1OC(c2cccc(Cl)c2)=NN1C(C)=O (stereo not drawn),varicella-zoster virus,"plaque formation, plaque reduction","HEL fibroblasts, TK- strain 07-1",,> 20 µM
CN(C)c1ccc(C=Nn2c(-c3ccccc3)nc3ccccc3c2=O)cc1,reovirus 1,viral replication,Vero,,> 20 µg/mL
CN(C(=O)c1ccn2ncc(-c3ccc(C(N)=O)cc3)c2c1)C1CCC(C#N)CC1 (stereo not drawn),Cryptosporidium hominis,cytopathic effect,HCT-8,,> 20 µM
CCOC(=O)[C@@H](C)NP(=O)(CO[C@H](CF)CN1CNC(N)=NC1=O)N[C@H](C)C(=O)OCC,varicella-zoster virus,plaque formation,"HEL, TK-deficient 07-1",,> 100 µM

# Excerpt of the above:
SMILES,organism,test,system,conditions,EC50
CCOc1cccc(NC(=O)CSc2cn(C(=O)OC(C)(C)C)c3ccccc23)c1,human coronavirus OC43,"viral cytopathic effect, MTS",HCT-8,120 h,0.94 µM
